Assay results of several laboratories.
A part holds a random share of what one study measured. “And” joins repeats or separate records; there may be more than shown.
UniProt P10721, sequence (whole entry, unmodified, looked up): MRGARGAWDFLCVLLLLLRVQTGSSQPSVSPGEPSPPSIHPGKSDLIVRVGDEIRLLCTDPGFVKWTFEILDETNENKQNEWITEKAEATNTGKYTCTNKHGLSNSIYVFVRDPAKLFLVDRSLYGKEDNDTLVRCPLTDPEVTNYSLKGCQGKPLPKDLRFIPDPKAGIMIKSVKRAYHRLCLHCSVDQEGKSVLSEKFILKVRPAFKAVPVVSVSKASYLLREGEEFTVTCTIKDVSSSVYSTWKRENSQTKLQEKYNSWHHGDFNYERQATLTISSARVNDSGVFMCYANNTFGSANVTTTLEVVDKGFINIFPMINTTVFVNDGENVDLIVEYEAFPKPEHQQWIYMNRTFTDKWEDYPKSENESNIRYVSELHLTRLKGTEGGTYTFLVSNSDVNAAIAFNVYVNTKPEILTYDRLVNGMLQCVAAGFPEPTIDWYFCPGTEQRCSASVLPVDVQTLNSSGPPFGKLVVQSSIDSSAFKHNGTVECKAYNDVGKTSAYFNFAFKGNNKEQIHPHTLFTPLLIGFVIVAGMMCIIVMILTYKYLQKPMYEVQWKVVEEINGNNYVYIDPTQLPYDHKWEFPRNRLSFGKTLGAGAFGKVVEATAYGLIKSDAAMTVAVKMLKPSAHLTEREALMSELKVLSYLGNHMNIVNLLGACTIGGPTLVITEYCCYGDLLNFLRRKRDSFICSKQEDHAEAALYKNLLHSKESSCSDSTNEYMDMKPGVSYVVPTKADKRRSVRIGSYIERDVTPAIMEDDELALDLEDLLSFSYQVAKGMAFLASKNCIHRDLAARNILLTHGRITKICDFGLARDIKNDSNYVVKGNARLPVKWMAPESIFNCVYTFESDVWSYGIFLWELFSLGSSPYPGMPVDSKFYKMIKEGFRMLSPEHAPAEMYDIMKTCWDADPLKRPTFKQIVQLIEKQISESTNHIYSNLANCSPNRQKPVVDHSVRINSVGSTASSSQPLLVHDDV
UniProt P51956, sequence (whole entry, looked up): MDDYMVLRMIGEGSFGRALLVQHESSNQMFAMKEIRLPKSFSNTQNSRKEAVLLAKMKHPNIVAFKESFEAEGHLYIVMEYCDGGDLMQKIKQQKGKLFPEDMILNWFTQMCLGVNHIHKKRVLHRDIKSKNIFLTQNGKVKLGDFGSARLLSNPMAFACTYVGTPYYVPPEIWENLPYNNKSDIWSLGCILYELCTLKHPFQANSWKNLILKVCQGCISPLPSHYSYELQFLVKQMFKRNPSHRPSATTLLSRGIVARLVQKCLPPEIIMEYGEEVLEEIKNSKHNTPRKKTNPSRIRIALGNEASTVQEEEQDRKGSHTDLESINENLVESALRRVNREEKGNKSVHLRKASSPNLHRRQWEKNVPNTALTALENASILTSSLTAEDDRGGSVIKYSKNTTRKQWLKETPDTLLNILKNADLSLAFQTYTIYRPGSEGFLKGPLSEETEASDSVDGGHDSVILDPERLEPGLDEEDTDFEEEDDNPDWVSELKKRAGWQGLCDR
UniProt P42681, sequence (whole entry, looked up): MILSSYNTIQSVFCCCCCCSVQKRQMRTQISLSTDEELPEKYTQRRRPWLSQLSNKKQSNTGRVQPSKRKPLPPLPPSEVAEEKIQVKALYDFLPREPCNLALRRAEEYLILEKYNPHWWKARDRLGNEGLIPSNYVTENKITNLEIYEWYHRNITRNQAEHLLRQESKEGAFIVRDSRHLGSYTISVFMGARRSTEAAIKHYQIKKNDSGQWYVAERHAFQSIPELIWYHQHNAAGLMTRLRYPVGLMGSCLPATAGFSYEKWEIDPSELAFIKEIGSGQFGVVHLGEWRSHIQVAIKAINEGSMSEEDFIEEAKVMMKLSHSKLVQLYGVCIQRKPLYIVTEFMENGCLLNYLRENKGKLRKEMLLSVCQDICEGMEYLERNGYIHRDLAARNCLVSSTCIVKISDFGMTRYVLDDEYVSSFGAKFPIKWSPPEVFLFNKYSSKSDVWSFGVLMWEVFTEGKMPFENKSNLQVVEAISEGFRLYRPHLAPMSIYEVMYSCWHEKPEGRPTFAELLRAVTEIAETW
UniProt P32298, sequence (whole entry, looked up): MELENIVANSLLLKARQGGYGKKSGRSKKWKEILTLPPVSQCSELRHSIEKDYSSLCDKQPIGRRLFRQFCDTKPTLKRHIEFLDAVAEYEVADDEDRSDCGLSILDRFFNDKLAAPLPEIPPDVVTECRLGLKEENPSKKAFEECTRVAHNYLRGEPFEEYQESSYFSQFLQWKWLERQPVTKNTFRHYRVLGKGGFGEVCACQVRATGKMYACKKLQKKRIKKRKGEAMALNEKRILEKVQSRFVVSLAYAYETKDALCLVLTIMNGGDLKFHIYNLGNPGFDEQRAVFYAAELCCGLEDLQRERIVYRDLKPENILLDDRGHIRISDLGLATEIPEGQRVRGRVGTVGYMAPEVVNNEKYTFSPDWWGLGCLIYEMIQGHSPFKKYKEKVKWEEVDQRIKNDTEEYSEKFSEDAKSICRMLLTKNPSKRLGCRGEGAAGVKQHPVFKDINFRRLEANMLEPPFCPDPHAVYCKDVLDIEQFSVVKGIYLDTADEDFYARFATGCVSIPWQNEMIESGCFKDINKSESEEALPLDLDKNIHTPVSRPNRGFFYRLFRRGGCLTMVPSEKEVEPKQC
UniProt Q13464, sequence (whole entry, looked up): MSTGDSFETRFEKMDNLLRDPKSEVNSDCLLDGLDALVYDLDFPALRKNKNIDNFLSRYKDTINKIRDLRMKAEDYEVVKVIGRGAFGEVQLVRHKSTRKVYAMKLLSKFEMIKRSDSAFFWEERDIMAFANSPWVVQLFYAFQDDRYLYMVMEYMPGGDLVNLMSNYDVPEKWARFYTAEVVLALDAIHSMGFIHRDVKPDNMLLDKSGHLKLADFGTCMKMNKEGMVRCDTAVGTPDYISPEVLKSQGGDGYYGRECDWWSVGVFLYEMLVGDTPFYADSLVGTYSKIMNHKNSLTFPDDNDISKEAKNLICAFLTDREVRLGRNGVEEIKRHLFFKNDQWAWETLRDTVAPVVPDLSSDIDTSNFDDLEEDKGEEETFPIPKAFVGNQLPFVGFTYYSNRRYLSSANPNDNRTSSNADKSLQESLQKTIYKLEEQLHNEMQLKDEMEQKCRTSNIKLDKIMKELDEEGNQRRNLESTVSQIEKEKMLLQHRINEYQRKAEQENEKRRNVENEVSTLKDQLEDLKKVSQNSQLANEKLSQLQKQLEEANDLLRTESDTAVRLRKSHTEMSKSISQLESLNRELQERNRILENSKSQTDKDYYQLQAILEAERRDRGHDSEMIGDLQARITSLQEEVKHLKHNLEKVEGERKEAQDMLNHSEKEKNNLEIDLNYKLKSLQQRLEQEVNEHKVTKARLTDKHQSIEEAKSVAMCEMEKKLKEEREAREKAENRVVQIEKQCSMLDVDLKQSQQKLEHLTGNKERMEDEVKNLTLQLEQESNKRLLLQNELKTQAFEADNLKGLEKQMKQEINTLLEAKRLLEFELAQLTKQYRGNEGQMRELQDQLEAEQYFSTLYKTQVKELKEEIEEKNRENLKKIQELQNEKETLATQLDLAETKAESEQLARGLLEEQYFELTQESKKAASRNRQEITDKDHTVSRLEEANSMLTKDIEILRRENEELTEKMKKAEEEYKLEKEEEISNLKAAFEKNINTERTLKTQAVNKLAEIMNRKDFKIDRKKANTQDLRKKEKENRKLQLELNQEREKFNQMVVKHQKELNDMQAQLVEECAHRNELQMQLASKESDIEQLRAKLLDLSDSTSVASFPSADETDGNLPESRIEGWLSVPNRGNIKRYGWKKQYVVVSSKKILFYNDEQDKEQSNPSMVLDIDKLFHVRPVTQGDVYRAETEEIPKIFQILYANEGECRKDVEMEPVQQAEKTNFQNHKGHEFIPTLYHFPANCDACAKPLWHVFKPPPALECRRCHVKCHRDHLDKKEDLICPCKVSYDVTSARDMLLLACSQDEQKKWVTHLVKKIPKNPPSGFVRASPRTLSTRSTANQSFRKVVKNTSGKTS
UniProt O75676, sequence (whole entry, looked up): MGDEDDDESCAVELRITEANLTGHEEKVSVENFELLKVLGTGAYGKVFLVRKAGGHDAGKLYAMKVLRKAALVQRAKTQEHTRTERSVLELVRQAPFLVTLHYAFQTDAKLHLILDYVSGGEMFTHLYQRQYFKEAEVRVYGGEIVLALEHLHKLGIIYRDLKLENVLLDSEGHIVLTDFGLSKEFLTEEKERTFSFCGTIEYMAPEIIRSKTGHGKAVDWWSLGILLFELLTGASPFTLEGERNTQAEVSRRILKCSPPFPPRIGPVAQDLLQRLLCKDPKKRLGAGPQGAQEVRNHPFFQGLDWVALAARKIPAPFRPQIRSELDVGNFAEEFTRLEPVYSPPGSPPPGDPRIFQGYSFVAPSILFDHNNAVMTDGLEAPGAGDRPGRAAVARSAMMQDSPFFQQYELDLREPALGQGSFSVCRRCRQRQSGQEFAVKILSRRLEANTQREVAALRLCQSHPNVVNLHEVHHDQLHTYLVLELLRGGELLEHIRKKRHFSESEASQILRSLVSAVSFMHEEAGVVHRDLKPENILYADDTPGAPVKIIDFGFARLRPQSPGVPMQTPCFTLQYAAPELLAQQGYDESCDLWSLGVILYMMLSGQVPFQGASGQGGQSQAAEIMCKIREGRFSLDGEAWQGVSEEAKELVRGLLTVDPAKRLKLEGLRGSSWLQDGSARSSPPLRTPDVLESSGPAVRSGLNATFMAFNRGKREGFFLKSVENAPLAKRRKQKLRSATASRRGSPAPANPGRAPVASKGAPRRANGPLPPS
UniProt Q6P2M8, sequence (whole entry, looked up): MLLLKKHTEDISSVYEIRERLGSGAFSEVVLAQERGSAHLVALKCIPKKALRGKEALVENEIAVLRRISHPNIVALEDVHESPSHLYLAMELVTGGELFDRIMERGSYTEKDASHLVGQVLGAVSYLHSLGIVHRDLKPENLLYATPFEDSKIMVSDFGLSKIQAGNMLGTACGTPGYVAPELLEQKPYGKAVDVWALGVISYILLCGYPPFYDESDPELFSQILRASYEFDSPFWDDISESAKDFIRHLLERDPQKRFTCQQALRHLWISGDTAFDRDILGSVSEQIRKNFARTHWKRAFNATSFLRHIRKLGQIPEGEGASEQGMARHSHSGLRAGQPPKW

Block 1
Cell line: HuT78
Concentration: 2 µM
Time: 48 h
Reference: untreated
Endpoint: viability
O=C(NOCC(O)CO)c1cc(Br)c(F)c(F)c1Nc1ccc(I)cc1F (stereo not drawn): 98.1%
O=C1Nc2ccc(I)cc2/C1=C/c1cc(Br)c(O)c(Br)c1: 105%
O=C(NCCO)c1cccc(-c2cc(Nc3ccc(OC(F)(F)F)cc3)ncn2)c1: 112%
COc1cccc(-n2c(=O)[nH]c3cc(Cl)n(-c4ccc(-c5cccc(OC)c5O)cc4)c3c2=O)c1: 116%
CCOc1cc(N2CCC(O)CC2)ccc1Nc1ncc2c(n1)N(C)c1ccccc1C(=O)N2C: 130%
COc1cc2nccc(Oc3ccc(NC(=O)NC4CC4)c(Cl)c3)c2cc1C(N)=O: 91.9%

Block 2
SMILES: Cn1cnc(Cn2ccc3ccc(CNCc4[nH]c5ccccc5c4[C@H]4NC(=O)c5ccc(O)cc54)cc32)c1
Observed: binding
Mode: competitor
Method: NanoBRET
Cell line: HEK293
Endpoint: normalized BRET
KRAS G12C: GTPase KRas (KRAS, Homo sapiens, UniProt P01116, G12C)
KRAS G12C; 339 pM, 0.5 h; reference: vehicle and 20 µM BI compound: 97.2% and 88.1% and 90.1% and 110%
KRAS G12C; 82.2 nM, 4 h; reference: vehicle and 20 µM BI compound: 98.7% and 106% and 103% and 107%
KRAS G12C; 1.02 nM, 0.5 h; reference: vehicle and 20 µM BI compound: 115% and 98.5% and 91.9% and 90.6%
KRAS G12C; 27.4 nM, 3 h; reference: vehicle and 20 µM BI compound: 114% and 126% and 104% and 123%
GTPase KRas (KRAS, Homo sapiens, UniProt P01116); 339 pM: 79.6% and 72.6% and 94.7% and 89.8%
KRAS G12C; 9.14 nM, 0.5 h; reference: vehicle and 20 µM BI compound: 94.7% and 85.1% and 98.3% and 97%

Block 3
SMILES: CC(=O)C1=C(C)N(c2cccc(C(F)(F)F)c2)C(=O)N[C@@H]1c1ccc(C#N)nc1
Observed: cell-free assay
Method: competition with immobilised ligand
Concentration: 1 µM
Endpoint: remaining binding
BLK (Homo sapiens, UniProt P51451): 95.8%
LYN (Homo sapiens, UniProt P07948): 100%
KIT (Homo sapiens, UniProt P10721, D816H): 100%
TESK1 (Homo sapiens, UniProt Q15569): 100%
FLT1 (Homo sapiens, UniProt P17948): 62.4%
SGK2 (Homo sapiens, UniProt Q9HBY8): 100%
CDKL2 (Homo sapiens, UniProt Q92772): 75.4%

Block 4
Structure (SMILES): O=C(CCCc1ccc(-c2ccccc2F)cc1)Nc1ccc(O)cc1
Observed: enzyme activity
Mode: inhibitor
Concentration: 0.5 µM
Reference: control
Endpoint: remaining activity
PNCK (Homo sapiens, UniProt Q6P2M8): 102%
Myosin-IIIb (MYO3B, Homo sapiens, UniProt Q8WXR4): 96.3%
TLK2 (Homo sapiens, UniProt Q86UE8): 84.1%
RPS6KA4 (Homo sapiens, UniProt O75676): 103%
PLK3 (Homo sapiens, UniProt Q9H4B4): 95%
NEK3 (Homo sapiens, UniProt P51956): 109%
Cyclin-dependent kinase 1, with cyclin A (CDK1, Homo sapiens, UniProt P06493): 93.7%
MARK4 (Homo sapiens, UniProt Q96L34): 124%
MARK2 (Homo sapiens, UniProt Q7KZI7): 91.5%
TXK (Homo sapiens, UniProt P42681): 97.7%
DCLK2 (Homo sapiens, UniProt Q8N568): 96.1%
ROCK1 (Homo sapiens, UniProt Q13464): 106%
GRK4 (Homo sapiens, UniProt P32298): 96.8%
MAPK1 (Homo sapiens, UniProt P28482): 69.9%

Repeated from above (block 4):
Cyclin-dependent kinase 1, with cyclin A (CDK1, Homo sapiens, UniProt P06493): 93.7%
NEK3 (Homo sapiens, UniProt P51956): 109%
MARK2 (Homo sapiens, UniProt Q7KZI7): 91.5%
TXK (Homo sapiens, UniProt P42681): 97.7%
GRK4 (Homo sapiens, UniProt P32298): 96.8%
